Experimental data from different studies.
Every numbered part comes from another study and shows a few of its results, in no order. “And” joins repeats or separate records; there may be more than shown.
Sequence of UniProt P24723 (whole entry, looked up): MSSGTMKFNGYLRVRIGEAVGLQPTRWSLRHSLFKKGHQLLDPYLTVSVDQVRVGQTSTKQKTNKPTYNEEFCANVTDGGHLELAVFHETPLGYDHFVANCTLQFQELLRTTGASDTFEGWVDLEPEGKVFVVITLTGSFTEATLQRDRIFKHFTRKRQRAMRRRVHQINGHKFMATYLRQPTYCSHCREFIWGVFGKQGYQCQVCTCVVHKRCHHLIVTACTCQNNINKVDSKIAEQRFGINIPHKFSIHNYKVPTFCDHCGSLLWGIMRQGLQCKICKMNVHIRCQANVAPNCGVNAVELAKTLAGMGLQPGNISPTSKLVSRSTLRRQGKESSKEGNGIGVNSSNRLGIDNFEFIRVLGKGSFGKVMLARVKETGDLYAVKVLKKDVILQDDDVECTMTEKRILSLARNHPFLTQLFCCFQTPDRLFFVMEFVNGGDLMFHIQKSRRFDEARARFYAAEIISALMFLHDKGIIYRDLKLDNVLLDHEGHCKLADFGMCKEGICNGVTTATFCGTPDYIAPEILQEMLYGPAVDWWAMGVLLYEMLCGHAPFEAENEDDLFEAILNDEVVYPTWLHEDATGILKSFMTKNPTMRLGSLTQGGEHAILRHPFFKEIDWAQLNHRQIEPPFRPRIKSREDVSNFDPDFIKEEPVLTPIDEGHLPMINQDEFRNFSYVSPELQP
Sequence of UniProt Q13470 (whole entry, looked up): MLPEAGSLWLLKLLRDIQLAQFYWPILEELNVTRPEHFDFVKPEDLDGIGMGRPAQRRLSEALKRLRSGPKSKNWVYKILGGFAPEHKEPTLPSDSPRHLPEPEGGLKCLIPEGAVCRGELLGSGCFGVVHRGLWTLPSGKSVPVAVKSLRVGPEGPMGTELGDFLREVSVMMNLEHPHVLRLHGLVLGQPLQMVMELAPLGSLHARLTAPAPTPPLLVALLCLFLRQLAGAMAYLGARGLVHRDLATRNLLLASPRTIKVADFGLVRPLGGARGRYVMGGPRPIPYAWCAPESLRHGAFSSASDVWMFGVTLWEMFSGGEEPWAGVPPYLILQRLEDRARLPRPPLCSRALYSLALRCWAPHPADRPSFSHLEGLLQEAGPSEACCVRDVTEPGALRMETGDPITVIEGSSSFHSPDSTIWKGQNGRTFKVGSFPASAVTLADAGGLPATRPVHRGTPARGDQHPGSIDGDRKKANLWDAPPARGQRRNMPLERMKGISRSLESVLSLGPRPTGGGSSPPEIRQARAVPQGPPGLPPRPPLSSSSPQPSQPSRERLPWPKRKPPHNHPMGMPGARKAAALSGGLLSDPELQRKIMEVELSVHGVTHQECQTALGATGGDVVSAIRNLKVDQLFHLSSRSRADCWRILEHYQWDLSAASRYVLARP
Sequence of UniProt Q7KZI7 (whole entry, looked up): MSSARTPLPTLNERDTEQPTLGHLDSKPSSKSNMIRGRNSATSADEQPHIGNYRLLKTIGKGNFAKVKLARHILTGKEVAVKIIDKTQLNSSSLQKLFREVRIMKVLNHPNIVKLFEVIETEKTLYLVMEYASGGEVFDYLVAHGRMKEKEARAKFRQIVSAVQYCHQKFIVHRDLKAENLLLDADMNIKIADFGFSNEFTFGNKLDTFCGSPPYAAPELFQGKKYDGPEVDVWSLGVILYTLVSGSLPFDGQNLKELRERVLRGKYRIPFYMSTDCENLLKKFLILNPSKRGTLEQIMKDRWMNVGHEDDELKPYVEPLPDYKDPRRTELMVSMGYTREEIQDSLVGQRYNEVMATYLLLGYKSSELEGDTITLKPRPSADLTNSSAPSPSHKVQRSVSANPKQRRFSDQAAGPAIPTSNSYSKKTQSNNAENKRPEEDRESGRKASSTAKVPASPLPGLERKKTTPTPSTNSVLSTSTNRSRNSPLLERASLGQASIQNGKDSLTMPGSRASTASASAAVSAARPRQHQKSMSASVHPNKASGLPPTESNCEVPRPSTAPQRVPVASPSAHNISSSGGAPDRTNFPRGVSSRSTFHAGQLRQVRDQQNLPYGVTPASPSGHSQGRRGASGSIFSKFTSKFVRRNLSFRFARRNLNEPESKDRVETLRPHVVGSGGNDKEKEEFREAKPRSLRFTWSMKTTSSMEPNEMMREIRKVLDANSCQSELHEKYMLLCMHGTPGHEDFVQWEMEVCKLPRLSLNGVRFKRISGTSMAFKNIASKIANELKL
Sequence of UniProt O43353 (whole entry, looked up): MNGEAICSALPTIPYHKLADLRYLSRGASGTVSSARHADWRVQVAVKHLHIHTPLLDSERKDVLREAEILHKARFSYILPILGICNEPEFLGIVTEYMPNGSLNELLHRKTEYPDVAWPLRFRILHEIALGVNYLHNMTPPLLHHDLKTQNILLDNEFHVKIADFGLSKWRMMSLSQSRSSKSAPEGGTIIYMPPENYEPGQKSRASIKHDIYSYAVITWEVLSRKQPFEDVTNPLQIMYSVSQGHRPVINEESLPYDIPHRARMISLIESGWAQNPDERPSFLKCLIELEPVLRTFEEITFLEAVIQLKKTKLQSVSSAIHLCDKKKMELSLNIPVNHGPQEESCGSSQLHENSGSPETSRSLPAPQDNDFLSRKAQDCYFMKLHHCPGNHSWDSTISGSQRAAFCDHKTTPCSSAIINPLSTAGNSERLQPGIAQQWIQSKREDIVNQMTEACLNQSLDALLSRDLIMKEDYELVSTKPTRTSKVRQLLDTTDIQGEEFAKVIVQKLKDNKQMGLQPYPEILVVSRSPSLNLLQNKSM
Sequence of UniProt P11802 (whole entry, looked up): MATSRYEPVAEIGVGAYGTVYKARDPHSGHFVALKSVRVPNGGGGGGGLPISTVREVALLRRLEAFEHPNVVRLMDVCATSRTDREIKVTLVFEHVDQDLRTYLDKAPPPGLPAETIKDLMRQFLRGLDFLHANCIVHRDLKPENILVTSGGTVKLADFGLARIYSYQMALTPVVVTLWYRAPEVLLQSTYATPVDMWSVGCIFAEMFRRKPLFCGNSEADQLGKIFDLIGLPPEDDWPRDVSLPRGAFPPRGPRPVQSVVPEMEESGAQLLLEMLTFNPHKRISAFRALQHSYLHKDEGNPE
Sequence of UniProt P43250 (whole entry, looked up): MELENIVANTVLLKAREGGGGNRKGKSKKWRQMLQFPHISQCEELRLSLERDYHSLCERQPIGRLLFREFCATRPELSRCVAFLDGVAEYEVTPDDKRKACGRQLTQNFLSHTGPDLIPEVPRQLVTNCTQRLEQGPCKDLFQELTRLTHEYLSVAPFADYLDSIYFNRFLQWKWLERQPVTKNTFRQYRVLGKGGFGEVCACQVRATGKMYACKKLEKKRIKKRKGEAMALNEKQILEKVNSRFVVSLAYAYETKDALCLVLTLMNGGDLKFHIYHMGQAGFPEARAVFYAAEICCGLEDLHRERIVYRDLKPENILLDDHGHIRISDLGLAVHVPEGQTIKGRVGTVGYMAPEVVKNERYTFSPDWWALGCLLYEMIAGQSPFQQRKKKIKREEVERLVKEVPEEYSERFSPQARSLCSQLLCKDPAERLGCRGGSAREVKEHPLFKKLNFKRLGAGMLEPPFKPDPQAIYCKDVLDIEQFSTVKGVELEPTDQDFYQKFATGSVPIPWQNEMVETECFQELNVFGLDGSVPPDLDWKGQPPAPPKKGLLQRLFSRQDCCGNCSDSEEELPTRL

Block 1 — concentration: 1 µM; quantity: remaining binding
Compound: CC[C@@]1(c2cccc(C(F)(F)F)c2)C2=C(Nc3n[nH]cc31)[C@H](F)C(C)(C)CC2=O (single isomer, unassigned)
KDR (Homo sapiens, UniProt P35968); kinase binding, KINOMEscan; baseline: DMSO control: 100%
SNRK (Homo sapiens, UniProt Q9NRH2); binding, competition with immobilised ligand: 67%
ROCK2 (Homo sapiens, UniProt O75116); binding, competition with immobilised ligand: 97%
PIK3CA (Homo sapiens, UniProt P42336, E545K); kinase binding, KINOMEscan; baseline: DMSO control: 71%
Ribosomal protein S6 kinase alpha-3, C-terminal kinase domain (RPS6KA3, Homo sapiens, UniProt P51812); binding, competition with immobilised ligand: 55%
TEK (Homo sapiens, UniProt Q02763); binding, competition with immobilised ligand: 100%
MAPK6 (Homo sapiens, UniProt Q16659); kinase binding, KINOMEscan; baseline: DMSO control: 98%
ALK (Homo sapiens, UniProt Q9UM73); kinase binding, KINOMEscan; baseline: DMSO control: 73%
SRC (Homo sapiens, UniProt P12931); kinase binding, KINOMEscan; baseline: DMSO control: 100%
FLT4 (Homo sapiens, UniProt P35916); kinase binding, KINOMEscan; baseline: DMSO control: 100%
LIM domain kinase 2 (LIMK2, Homo sapiens, UniProt P53671); kinase binding, KINOMEscan; baseline: DMSO control: 100%
CDK2 (Homo sapiens, UniProt P24941); binding, competition with immobilised ligand: 97%
TAOK3 (Homo sapiens, UniProt Q9H2K8); kinase binding, KINOMEscan; baseline: DMSO control: 97%
Tyrosine-protein kinase ABL1, non-phosphorylated (ABL1, Homo sapiens, UniProt P00519, H396P); kinase binding, KINOMEscan; baseline: DMSO control: 48%
EGFR (Homo sapiens, UniProt P00533, del746-750); binding, competition with immobilised ligand: 100%
COQ8A (Homo sapiens, UniProt Q8NI60); kinase binding, KINOMEscan; baseline: DMSO control: 100%
Cyclin-dependent kinase 4, with cyclin D3 (CDK4, Homo sapiens, UniProt P11802); kinase binding, KINOMEscan; baseline: DMSO control: 98%

Block 2 — observed: kinase activity; quantity: inhibition
SMILES: CNc1ncc2cc(-c3cc(OC)cc(OC)c3Cl)c(=O)n(CCc3ccc(NC(=O)C(C#N)=CC(C)(C)N4CCOCC4)cc3)c2n1
CDK2 with cyclin E: Cyclin-dependent kinase 2, with cyclin E (CDK2, Homo sapiens, UniProt P24941)
MARK2 (Homo sapiens, UniProt Q7KZI7); 0.1 µM: 3%
CDK2 with cyclin E; 1 µM: 4%
NEK2 (Homo sapiens, UniProt P51955); 1 µM: -9%
RIPK2 (Homo sapiens, UniProt O43353); 1 µM: -6%
ROS1 (Homo sapiens, UniProt P08922); 0.1 µM: -1%
SPHK1 (Homo sapiens, UniProt Q9NYA1); 0.1 µM: 4%
Insulin receptor (INSR, Homo sapiens, UniProt P06213); 1 µM: 6%
PHKG1 (Homo sapiens, UniProt Q16816); 1 µM: -10%
TNIK (Homo sapiens, UniProt Q9UKE5); 1 µM: 2%
TNK1 (Homo sapiens, UniProt Q13470); 1 µM: 5%
CSK (Homo sapiens, UniProt P41240); 0.1 µM: 2%
PRKCH (Homo sapiens, UniProt P24723); 0.1 µM: -7%
PHKG2 (Homo sapiens, UniProt P15735); 0.1 µM: -1%
MAPK3 (Homo sapiens, UniProt P27361); 1 µM: -8%
BRSK1 (Homo sapiens, UniProt Q8TDC3); 1 µM: 1%
LCK (Homo sapiens, UniProt P06239); 1 µM: 25%
EPHA1 (Homo sapiens, UniProt P21709); 1 µM: 23%
CDK2 with cyclin E; 0.1 µM: 1%
DYRK1A (Homo sapiens, UniProt Q13627); 0.1 µM: -7%
GRK6 (Homo sapiens, UniProt P43250); 1 µM: 2%
PLK3 (Homo sapiens, UniProt Q9H4B4); 0.1 µM: -2%

Block 3 — observed: binding; method: HTRF; quantity: inhibition
SMILES: Cc1ccnc(C)c1-c1cnc2[nH]c(-c3ccc(N4CCN(C)CC4)nc3C)nc2c1
Target: Membrane-associated tyrosine- and threonine-specific cdc2-inhibitory kinase (PKMYT1, Homo sapiens, UniProt Q99640)
Target sequence (Q99640 1-499): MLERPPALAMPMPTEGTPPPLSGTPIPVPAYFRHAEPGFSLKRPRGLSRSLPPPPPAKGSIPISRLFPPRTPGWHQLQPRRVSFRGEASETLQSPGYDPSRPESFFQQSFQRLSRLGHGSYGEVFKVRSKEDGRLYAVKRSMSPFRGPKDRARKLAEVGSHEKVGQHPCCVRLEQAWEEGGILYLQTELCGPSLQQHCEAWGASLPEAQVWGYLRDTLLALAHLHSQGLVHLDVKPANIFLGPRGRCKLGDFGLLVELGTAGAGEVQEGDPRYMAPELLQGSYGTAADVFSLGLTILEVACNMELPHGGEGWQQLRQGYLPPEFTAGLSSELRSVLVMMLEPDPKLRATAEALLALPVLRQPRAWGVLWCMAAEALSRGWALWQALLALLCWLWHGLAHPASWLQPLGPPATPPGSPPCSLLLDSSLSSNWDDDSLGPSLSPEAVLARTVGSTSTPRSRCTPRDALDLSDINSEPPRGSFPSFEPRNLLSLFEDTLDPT
1.52 nM: -15.1% and -17.2%
123.46 nM: -18.8% and -19.7%
4.57 nM: -15.1% and -7.83%
0.51 nM: -9.32% and -11.9%
10000 nM: 8.06% and 14.8%
13.72 nM: -13.5% and -18.4%
1111.11 nM: -14.8% and -6.06%
3333.33 nM: -6.5% and -7.75%

Block 4 — observed: thermal unfolding; method: differential scanning fluorimetry; concentration: 5.5 µM; direction: higher = more unfolded; quantity: SYPRO Orange fluorescence
Structure (SMILES): C[C@@H]1CN(c2ccc(-c3cc(C(=O)NCCOCCOCCOCCOCCOCCOCCNC(=O)/C=C/c4[nH]cc(C(=O)N[C@@H](CC(N)=O)c5ccc(F)c(Cl)c5)c4-c4ccc(Cl)cc4F)ccc3F)cc2NC(=O)c2ccc(F)cc2C(F)(F)F)C[C@H](C)N1C
WDR5: WD repeat-containing protein 5 (WDR5, Homo sapiens, UniProt P61964)
DCAF1: DDB1- and CUL4-associated factor 1 (DCAF1, Homo sapiens, UniProt Q9Y4B6)
Sequence of UniProt Q9Y4B6 (whole entry, looked up): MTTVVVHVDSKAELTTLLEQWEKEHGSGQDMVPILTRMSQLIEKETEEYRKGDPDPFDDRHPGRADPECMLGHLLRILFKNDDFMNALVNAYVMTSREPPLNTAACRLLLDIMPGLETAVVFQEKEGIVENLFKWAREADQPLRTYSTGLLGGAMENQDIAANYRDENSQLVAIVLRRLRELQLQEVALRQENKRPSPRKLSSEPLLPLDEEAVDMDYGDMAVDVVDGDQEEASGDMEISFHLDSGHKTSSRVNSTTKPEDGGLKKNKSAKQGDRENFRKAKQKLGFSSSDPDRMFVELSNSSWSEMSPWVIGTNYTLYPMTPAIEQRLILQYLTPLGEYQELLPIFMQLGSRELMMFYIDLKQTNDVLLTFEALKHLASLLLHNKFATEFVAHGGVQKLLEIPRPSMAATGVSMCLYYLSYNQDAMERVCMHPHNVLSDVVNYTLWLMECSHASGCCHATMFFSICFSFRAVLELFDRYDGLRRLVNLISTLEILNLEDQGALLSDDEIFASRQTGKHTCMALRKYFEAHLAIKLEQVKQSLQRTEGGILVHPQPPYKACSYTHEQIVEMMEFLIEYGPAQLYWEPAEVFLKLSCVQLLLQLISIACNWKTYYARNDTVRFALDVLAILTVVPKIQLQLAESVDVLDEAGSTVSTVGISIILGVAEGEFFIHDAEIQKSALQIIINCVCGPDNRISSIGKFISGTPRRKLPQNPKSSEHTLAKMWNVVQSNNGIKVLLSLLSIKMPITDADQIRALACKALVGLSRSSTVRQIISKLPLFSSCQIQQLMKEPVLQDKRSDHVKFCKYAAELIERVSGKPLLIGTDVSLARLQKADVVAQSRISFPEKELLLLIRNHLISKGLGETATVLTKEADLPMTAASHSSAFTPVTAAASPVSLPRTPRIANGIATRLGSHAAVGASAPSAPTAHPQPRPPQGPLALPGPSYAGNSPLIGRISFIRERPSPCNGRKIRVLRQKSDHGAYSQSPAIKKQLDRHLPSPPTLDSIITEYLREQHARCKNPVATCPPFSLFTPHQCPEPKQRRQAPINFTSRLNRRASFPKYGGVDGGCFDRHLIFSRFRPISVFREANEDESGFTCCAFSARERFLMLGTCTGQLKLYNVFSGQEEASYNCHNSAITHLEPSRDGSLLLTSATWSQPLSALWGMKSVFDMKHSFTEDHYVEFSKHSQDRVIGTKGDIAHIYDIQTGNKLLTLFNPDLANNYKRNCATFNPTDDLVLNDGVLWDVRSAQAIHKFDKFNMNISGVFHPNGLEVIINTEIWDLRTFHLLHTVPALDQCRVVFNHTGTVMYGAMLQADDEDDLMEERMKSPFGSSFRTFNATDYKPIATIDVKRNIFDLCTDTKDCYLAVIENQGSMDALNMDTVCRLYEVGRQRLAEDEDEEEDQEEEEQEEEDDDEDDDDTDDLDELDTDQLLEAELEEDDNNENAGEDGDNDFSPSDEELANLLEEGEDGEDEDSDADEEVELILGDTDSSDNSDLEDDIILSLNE
WDR5; 68.41 °C: 22700 a.u.
DCAF1; 33.2 °C: 9330 a.u.
DCAF1; 71.61 °C: 46600 a.u.
DCAF1; 57.81 °C: 37700 a.u.
DCAF1; 51.4 °C: 19500 a.u.
WDR5; 83.81 °C: 63900 a.u.
DCAF1; 73.21 °C: 45600 a.u.
DCAF1; 41.2 °C: 12300 a.u.
WDR5; 92.21 °C: 51500 a.u.
DCAF1; 47.8 °C: 16400 a.u.
WDR5; 53.21 °C: 16600 a.u.

For quick reference, copied from above (block 2):
CDK2 with cyclin E; 1 µM: 4%
RIPK2 (Homo sapiens, UniProt O43353); 1 µM: -6%
MAPK3 (Homo sapiens, UniProt P27361); 1 µM: -8%
PHKG2 (Homo sapiens, UniProt P15735); 0.1 µM: -1%
BRSK1 (Homo sapiens, UniProt Q8TDC3); 1 µM: 1%
NEK2 (Homo sapiens, UniProt P51955); 1 µM: -9%
LCK (Homo sapiens, UniProt P06239); 1 µM: 25%
TNK1 (Homo sapiens, UniProt Q13470); 1 µM: 5%
